Experimental data gathered from unrelated publications.
Lines come from different studies, so protocols differ. ± gives the spread as reported.
UniProt P05181, sequence (whole entry, looked up): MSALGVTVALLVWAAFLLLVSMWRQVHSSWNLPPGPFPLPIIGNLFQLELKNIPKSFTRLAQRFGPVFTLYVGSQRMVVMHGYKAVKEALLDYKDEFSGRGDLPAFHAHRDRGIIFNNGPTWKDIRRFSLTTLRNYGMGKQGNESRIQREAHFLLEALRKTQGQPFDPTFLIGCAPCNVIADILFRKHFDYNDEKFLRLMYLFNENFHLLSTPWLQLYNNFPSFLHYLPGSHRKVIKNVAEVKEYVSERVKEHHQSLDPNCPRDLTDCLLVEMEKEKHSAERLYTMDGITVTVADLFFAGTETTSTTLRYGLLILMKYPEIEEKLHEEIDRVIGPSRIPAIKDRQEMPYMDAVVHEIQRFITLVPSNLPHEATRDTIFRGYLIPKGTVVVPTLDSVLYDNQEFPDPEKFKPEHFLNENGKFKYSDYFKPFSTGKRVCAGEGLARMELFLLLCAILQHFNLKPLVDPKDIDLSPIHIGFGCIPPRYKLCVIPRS
UniProt P05177, sequence (whole entry, looked up): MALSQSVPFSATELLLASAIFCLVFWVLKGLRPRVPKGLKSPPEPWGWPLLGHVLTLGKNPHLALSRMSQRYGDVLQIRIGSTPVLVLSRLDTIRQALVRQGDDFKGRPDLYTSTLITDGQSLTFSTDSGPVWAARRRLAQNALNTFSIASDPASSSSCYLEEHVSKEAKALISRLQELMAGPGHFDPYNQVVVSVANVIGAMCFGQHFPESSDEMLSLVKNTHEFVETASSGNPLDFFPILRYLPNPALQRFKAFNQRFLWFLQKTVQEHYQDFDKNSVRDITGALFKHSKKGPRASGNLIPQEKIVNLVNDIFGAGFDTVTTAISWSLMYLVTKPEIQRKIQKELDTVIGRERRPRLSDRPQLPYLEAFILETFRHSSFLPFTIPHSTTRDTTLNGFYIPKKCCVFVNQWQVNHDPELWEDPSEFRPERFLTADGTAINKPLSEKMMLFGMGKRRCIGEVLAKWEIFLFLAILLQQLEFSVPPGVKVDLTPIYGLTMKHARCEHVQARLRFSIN

SMILES | target or system | test | system | conditions | scale | endpoint | result
COc1ccc(-n2c(=O)c(C(=O)C3C(=O)CCCC3=O)nc3ccccc32)cc1 | Oryza sativa var. Kinmaze | crop injury | – | paddy water application, 28 days, transplanted at two-leaf stage | – | ED20 | 6.3 g a.i./10 a
CCCCCc1ccc2c(c1O)C(c1ccc(OC)c(OC)c1OC)OC2=O (stereo not drawn) | Naegleria fowleri trophozoites | AlamarBlue | ATCC 30808 | 48 h, 37 °C | reference: J774A.1 CC50 over IC50 ATCC 30808 | selectivity index | ≥ 4.68
O=C(O)CCC(NP(=O)(O)OCCC[C@@H](NC(=O)CC[C@H](NC(=O)CCCCCNC(=O)c1ccc([18F])cc1)C(=O)O)C(=O)O)C(=O)O (stereo partly drawn) | CWR22Rv1 tumour model | – | host not given, kidney | 1 h, tumour-bearing | – | tracer uptake | 18.1 %ID/g
COc1cccc2c1C(=O)c1c(O)c3c(c(O)c1C2=O)CC(O)(C(=O)CO)CC3OC1CC(NC(=O)C[C@H](N)C(=O)O)C(O)C(C)O1 (stereo partly drawn) | HepG2 (LAT1-positive) | HPLC | – | 10 µg/mL, 2 h, serum-free medium | – | cellular uptake | 0.48 ± 0.019 µg/mL
C=CC(=O)Nc1cc(Nc2nccc(-c3cn(C)c4ccccc34)n2)c(OCC(F)(F)F)nc1N(C)CCN(C)C | Cytochrome P450 1A2 (CYP1A2, Homo sapiens, UniProt P05177) | substrate, LC-MS | recombinant enzyme | 3 µM, 60 min | – | remaining compound | 93.7%
O=C(CCC(=O)NCCS(=O)(=O)O)NCCNC(=O)[C@@H](Cc1ccccc1)NC(=O)[C@@H](Cc1ccccc1)NC(=O)CCNc1ccc([N+](=O)[O-])c2nonc12 | HeLa | – | – | 200 µM, 24 h, five PBS washes | – | intracellular concentration after washes | 0.08 mM
O=C(O)c1cc(Br)c(O)c(Br)c1 | Cytochrome P450 2E1 (CYP2E1, Homo sapiens, UniProt P05181) | p-nitrophenol hydroxylation, inhibitor | baculosomes | additive 10 nM | – | Ki | 5 nM
CC=C1C(OC2OC(CO)C(O)C(O)C2O)OC=C(C(=O)OC)C1CC(=O)OCC1OC(OCCc2ccc(O)cc2)C(O)C(O)C1O (stereo not drawn) | mouse gut microbiota | anaerobic incubation | male Balb/c mice, intestinal contents, anaerobic medium | 10 µg/mL, 30 min | – | metabolized fraction | 88.1%
CC1(C)CCC2(CO)C(=C3C=CC4[C@@]5(C)CCC(O)[C@@](C)(CO)C5CC[C@@]4(C)[C@]3(C)C[C@H]2O)C1 (stereo partly drawn) | Caco-2 monolayer | Caco-2 bidirectional transport | – | 10 µM, 3 h, 37 °C | – | recovery apical to basolateral | 89.9%
Cn1c(=O)oc2ccc(-c3ccc(CC(C#N)NC(=O)C4CNCCCO4)c(F)c3)cc21 (stereo not drawn) | – | – | human | oral, 40 mg once daily, treatment-related AE, multiple ascending dose | – | mouth ulceration incidence | 0%
CCC(=O)N(C)c1ccc(Cl)c(Cl)c1 | CHO-WBL | – | – | 0.032 mg/mL, 3 h, with S9 activation | – | cells with one aberration | 0%
CC(=O)N[C@H](C(=O)N[C@H](C(=O)N[C@@H](CCCNC(=N)N)C(=O)N1Cc2ccccc2C[C@H]1C(=O)N[C@@H](Cc1ccccc1)C(N)=O)C1CCCCC1)C(C)C | human PBMC | Bio-Plex multiplex, item: VEGF | – | 250 µg/mL, 24 h | – | cytokine level | 111 ± 61.7 pg/mL
CC1(C)CCC23COC4(C=CC5C6(C)CCC(O)C(C)(CO)C6CCC5(C)C4(C)CC2O)C3C1 (stereo not drawn) | Caco-2 monolayer | Caco-2 bidirectional transport | – | 10 µM, 3 h, 37 °C | – | recovery basolateral to apical | 88.4%
[64Cu+2].c1ccc(CNCc2ccc(CN3CCCN4CCNCCCN(CC4)CC3)cc2)nc1 | CXCR4 | – | NOD/SCID mouse, U87 and U87-stb-CXCR4 xenografts, liver | iv, 90 min, ex vivo | – | tissue uptake | 84.7 ± 9.78 %ID/g
COc1ccc(C2OC(=O)c3ccc(C)c(O)c32)c(OC)c1OC (stereo not drawn) | Naegleria fowleri trophozoites | AlamarBlue | ATCC 30808 | 48 h, 37 °C | reference: J774A.1 CC50 over IC50 ATCC 30808 | selectivity index | ≥ 1.52
N=C(N)NCCC[C@@H]1NC(=O)[C@H](Cc2c[nH]c3ccccc23)NC(=O)[C@@H](CC2CCCCC2)NC(=O)[C@@H]2CCCN2C(=O)[C@@H](NC(=O)CCc2ccccc2)CCCNC1=O | – | – | C57BL/6J mice, plasma | oral, 1 mg/kg, two-compartment model | – | elimination rate constant | 0.000581 s⁻¹
[64Cu+2].c1cnc(CNCc2ccc(CN3CCCN4CCNCCCN(CC4)CC3)cc2)nc1 | CXCR4 | – | NOD/SCID mouse, U87 and U87-stb-CXCR4 xenografts, lungs | iv, 90 min, ex vivo | – | tissue uptake | 7.6 ± 1.11 %ID/g
COc1ccc(C2OC(=O)c3ccc(-c4ccccc4)c(O)c32)c(OC)c1OC (stereo not drawn) | Naegleria fowleri trophozoites | AlamarBlue | ATCC 30808 | 48 h, 37 °C | reference: J774A.1 CC50 over IC50 ATCC 30808 | selectivity index | ≥ 29.3
CC(=O)OC(CF)Cn1cnc([N+](=O)[O-])c1 (stereo not drawn) | Salmonella enterica serovar Typhimurium | Ames test | TA100 | 72 h | – | mutagenic potency | 41.7 revertants/µg
COc1ccc(C2OC(=O)c3ccc(C(C)C)c(O)c32)cc1OC (stereo not drawn) | Naegleria fowleri trophozoites | AlamarBlue | ATCC 30215 | 48 h, 37 °C | reference: J774A.1 CC50 over IC50 ATCC 30215 | selectivity index | ≥ 8.73
CC(=O)OC(CF)Cn1c([N+](=O)[O-])cnc1C (stereo not drawn) | Salmonella enterica serovar Typhimurium | Ames test, Bernstein slope | TA97 | – | – | mutagenic potency | 0.3 ± 0.22 revertants/µg

A few entries again:
SMILES | target or system | test | system | conditions | scale | endpoint | result
CCCCCc1ccc2c(c1O)C(c1ccc(OC)c(OC)c1OC)OC2=O (stereo not drawn) | Naegleria fowleri trophozoites | AlamarBlue | ATCC 30808 | 48 h, 37 °C | reference: J774A.1 CC50 over IC50 ATCC 30808 | selectivity index | ≥ 4.68
O=C(O)CCC(NP(=O)(O)OCCC[C@@H](NC(=O)CC[C@H](NC(=O)CCCCCNC(=O)c1ccc([18F])cc1)C(=O)O)C(=O)O)C(=O)O (stereo partly drawn) | CWR22Rv1 tumour model | – | host not given, kidney | 1 h, tumour-bearing | – | tracer uptake | 18.1 %ID/g
